Experimental data collected from several papers.
Parts stem from different laboratories: compare values within a part only. Substitutions count along the parent as printed.

Series 1 — method: protein-binding microarray; molecule type: double-stranded DNA, one strand shown; sample: in vitro; concentration: not given; reading: higher = stronger binding
Target: Transcriptional repressor CTCF (CTCF, Homo sapiens, UniProt P49711, residues 1-727, full length assumed)
Chain of UniProt P49711 (whole entry, looked up): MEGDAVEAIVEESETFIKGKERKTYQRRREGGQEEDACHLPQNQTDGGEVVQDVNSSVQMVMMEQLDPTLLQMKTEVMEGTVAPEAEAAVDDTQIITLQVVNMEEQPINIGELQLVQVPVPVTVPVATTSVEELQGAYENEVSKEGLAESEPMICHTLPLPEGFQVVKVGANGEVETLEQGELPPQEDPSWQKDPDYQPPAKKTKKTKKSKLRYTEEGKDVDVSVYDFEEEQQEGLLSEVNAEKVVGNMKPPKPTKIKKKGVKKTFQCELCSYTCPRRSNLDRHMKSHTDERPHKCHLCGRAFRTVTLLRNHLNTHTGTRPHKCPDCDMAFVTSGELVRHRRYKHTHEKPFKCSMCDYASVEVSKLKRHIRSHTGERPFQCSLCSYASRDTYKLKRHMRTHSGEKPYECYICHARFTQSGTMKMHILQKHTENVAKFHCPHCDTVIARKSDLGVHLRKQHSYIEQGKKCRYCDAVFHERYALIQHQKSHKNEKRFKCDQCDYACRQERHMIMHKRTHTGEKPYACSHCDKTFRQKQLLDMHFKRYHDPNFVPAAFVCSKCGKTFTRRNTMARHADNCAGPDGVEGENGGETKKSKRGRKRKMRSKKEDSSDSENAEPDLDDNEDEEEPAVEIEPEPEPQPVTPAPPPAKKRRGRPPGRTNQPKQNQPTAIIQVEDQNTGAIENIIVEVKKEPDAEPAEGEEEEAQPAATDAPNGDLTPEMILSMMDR
Setting: k-mer, scored over probes, only values ≥0.25
Oligonucleotide	E-score
ATCCAAAC	0.252
ATGATAAC	0.275
ACGTTTAA	0.281
CCTATAGG	0.278
AACAAAAT	0.314
ATTCATAA	0.321
ACATATTC	0.251
CATAGCGC	0.286
GGCGCATA	0.423
ATTACATA	0.273
ATTGAAAA	0.275
AACGCAAC	0.281
ATGCGTAA	0.27
ATGAGAAT	0.265
ACCGCAAC	0.291
ACCGTAAA	0.265
ATGCGCAG	0.319
AATTAGTA	0.267
CATGATTA	0.3
AGATAATA	0.304
AAGAAAAT	0.279

Series 2 — target: CCNB2, cyclin fold, Cln2 fusion (human); method: yeast growth competition, sequencing; sample: yeast; setting: weak parent motif; baseline: not given; reading: higher = stronger binding
Parent: DBF4 docking peptide (human); DDIVSKLVFDFVE; partner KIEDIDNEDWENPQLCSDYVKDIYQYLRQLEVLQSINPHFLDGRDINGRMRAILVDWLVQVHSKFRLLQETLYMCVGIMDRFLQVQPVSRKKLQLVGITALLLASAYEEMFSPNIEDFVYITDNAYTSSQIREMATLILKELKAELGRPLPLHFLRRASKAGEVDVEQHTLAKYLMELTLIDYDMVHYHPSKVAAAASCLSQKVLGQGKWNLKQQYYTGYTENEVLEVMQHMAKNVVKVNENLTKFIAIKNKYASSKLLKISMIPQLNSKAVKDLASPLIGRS
Substitution	normalised enrichment score
E13A	-0.174
L7A	-0.792
F9A	-0.212
D10A	-0.607
D2A	0.288
I3A	-0.541

Series 3 — method: protein-binding microarray; molecule type: double-stranded DNA, one strand shown; sample: in vitro; concentration: 2540 nM top; setting: 60-bp whole probe; with: salmon DNA 0.4 mg/ml; baseline: random background probes; reading: higher = stronger binding; shared flanks, not repeated: GCCTAGCAC … GTCTTGATTCGCTTGACGCTGCTG
Target: Interferon regulatory factor 3, full length, phosphomimetic (IRF3, Homo sapiens, UniProt Q14653, residues 1-427, S386D/S396D/S398D/S402D/T404D/S405D)
Construct (chain): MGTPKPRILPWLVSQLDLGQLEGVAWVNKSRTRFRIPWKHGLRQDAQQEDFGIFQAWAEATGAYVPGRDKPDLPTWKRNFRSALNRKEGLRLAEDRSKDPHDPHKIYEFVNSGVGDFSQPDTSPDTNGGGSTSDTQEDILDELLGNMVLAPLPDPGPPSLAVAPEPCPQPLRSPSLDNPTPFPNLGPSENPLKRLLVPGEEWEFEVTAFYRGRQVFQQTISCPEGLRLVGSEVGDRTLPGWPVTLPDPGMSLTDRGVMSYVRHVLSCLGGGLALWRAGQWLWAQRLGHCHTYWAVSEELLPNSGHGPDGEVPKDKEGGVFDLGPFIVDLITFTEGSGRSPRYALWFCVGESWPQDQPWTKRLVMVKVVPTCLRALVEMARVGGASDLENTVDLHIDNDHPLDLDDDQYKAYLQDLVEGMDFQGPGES
Oligonucleotide	fitted relative affinity
TTAGGTTTGCTTATCCTTTAGTGCTAG	0.91 z-score
GACGAACTGAGACTGGAGAAGTGCTAG	-0.296 z-score
CTAGGTTTCGGTTCCGGTTAGTGCTAG	10.3 z-score
ATAGAACTGAGTCTCGATTAGTGCTAG	-0.187 z-score
ATAGGACTGGGACTGGGTTAGTGCTAG	-0.942 z-score
TTAGGTCTCCTTCACCTTTAGTGCTAG	0.595 z-score
GACGATTTCAGTTTCGAGGCGTGCTAG	4.31 z-score
GAGGGACTGGGGTTTCGGGACGTGCTA	0.398 z-score
GACGGTCTCGCTTTCGGGACGTGCTAG	2.04 z-score
TATCCTATCAGTTTAATATCGTGCTAG	3.7 z-score
TTAGGACTGGTCTTTCGGTTAGTGCTA	0.118 z-score
CACTCTTTCCTCACCATACTGTGCTAG	2.27 z-score
TTAGGTCTCCTACTGATTTAGTGCTAG	0.703 z-score
GACGGGCTGGGTTTCGGGACGTGCTAG	0.713 z-score
GACGGACTGGACTCTCGGGACGTGCTA	-0.488 z-score
TCAGGCTTTCCTTTATGACTGTGCTAG	2.91 z-score
AAAGTTATCACTTCCAAAGTGTGCTAG	2 z-score
GGCTCTCTGGACTGTGTGTTTGTGCTA	-1.05 z-score
GACGGTACCGGTCTCGGGACGTGCTAG	1.78 z-score
GACGGACGGGACTTTCGGGACGTGCTA	0.0407 z-score
GACGGTCTCGGTATCGGGACGTGCTAG	2.04 z-score
TTAGGTTTCATACTGCTTTAGTGCTAG	3.07 z-score
GACGGACTGGGGTGTCGGGACGTGCTA	-0.517 z-score
GACTGTATCGGGACTGGGGACGTGCTA	1.67 z-score
GACCAACTGGGGACTGGAGACGTGCTA	-0.367 z-score

Series 4 — method: aptamer microarray, sandwich; molecule type: DNA with 2'F-ANA; sample: in vitro; concentration: 200 nM; with: Cy3 exosite-II aptamer, 400 nM; reading: higher = stronger binding; oligonucleotide: GGTTGGTGTGGTTGG
Target: Prothrombin, mature alpha-thrombin (F2, Homo sapiens, UniProt P00734)
Setting: whole 15-mer aptamer, many near background
Modification	mean fluorescence intensity [a.u.]
2'F-ANA at 1 3 4 5 6 7 12 13 15	78.7
2'F-ANA at 1 6 7 8 9 11 13 14 15	62
2'F-ANA at 1 2 3 9 10 12 13	87.8
2'F-ANA at 3 6 7 11 13	886
2'F-ANA at 1 2 4 5 6 7 8 9 11 12 15	87
2'F-ANA at 2 6 7 8 9 11 12 15	479
2'F-ANA at 1 3 5 6 7 8 9 10 11 12 13 15	75.8
2'F-ANA at 3 4 6 7 12 14 15	292
2'F-ANA at 3 4 5 6 7 8 9 10 15	53.7
2'F-ANA at 1 5 6 9 12 13 14	53.7
2'F-ANA at 1 3 4 5 9 10 13	44.5
2'F-ANA at 4 5 8 9 10 14 15	45.1
2'F-ANA at 2 3 4 6 7 8 12 15	894
2'F-ANA at 1 3 4 5 7 11 12 13 14 15	48
2'F-ANA at 2 3 5 6 7 8 12 13 14	55.6
2'F-ANA at 3 6 8 9 10 12 14 15	355
2'F-ANA at 1 2 3 8 9 12 13 14 15	101
2'F-ANA at 2 7 8 9 14	214
2'F-ANA at 1 2 7 9 10 11 13	51.8
2'F-ANA at 2 3 4 5 8 9 12 13 15	192
2'F-ANA at 5 11 13 14 15	43.6
2'F-ANA at 2 7 8 11 14 15	202
2'F-ANA at 2 3 4 5 6 8 9 11 13 14 15	47.6

Series 5 — method: protein binding microarray; molecule type: double-stranded DNA, one strand shown; sample: in vitro; concentration: not given; baseline: not given; reading: higher = stronger binding
Target: Histone acetyltransferase KAT6A, both winged helices, GST fusion (KAT6A, Homo sapiens, UniProt Q92794, residues 1-181)
Setting: 8-mer, flanks averaged, mean of 2 arrays, mostly near background
Construct (chain): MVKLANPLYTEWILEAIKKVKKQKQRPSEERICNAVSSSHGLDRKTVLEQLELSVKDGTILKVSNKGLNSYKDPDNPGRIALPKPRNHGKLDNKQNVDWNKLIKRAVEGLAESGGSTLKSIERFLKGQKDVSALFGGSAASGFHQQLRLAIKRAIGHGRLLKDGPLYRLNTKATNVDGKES
Oligonucleotide	E-score
AGGACGAG	-0.183
CAGACACG	0.165
AAGCCTTG	-0.023
ATGGAACA	-0.2
CTGTTCCC	0.0282
ATTGAGGA	-0.0571
AAGAGAAA	-0.0171
TGGGGCAA	-0.209
GAGATGGA	-0.175
AACGCCGT	0.28
CGTTAAAG	0.0815
CAGGAGAG	-0.269
ACGCGCTG	0.245
CCCCAAGG	-0.202
ACCTCGAC	-0.0885
GATAGGCC	-0.0223
GTACTGAA	0.0355
AGTTAAAG	-0.0864
GAGATGAC	-0.0549
CATGCCAG	-0.137

Series 6 — method: DHFR PCA, deep sequencing; sample: yeast; with: (+)-ABA 200 µM; baseline: wild-type fitted maximum; reading: higher = stronger binding
Target: ABI1, truncated, D143A, DHFR fusion (Arabidopsis thaliana)
Setting: methotrexate growth selection, single substitutions
Parent: PYL1, truncated, DHFR fusion (Arabidopsis thaliana); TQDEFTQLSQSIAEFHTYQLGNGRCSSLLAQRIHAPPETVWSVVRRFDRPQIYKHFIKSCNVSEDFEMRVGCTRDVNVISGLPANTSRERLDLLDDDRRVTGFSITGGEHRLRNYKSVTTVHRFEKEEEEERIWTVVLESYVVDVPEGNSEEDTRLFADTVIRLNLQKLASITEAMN; partner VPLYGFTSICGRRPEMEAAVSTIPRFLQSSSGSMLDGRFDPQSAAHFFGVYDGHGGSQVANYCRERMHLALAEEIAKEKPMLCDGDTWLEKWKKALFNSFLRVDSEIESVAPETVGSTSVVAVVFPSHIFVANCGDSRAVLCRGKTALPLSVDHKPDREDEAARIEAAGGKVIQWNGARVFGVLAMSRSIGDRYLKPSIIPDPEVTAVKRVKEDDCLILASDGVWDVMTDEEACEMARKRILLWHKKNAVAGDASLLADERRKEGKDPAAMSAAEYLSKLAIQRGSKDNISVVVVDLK
Substitution	relative binding score
T86H	95.9%
T6M	101%
L93G	32.2%
T135D	-4.57%
E131V	107%
Y141R	-6.1%
S9N	101%
D159A	60.9%
G81R	20.5%
A170Q	94.6%
H122S	65.2%
D144A	68.5%

Excerpt of the above (series 4):
Modification	mean fluorescence intensity [a.u.]
2'F-ANA at 3 4 6 7 12 14 15	292
2'F-ANA at 2 3 5 6 7 8 12 13 14	55.6
2'F-ANA at 2 3 4 5 8 9 12 13 15	192
2'F-ANA at 2 3 4 6 7 8 12 15	894
2'F-ANA at 1 2 3 9 10 12 13	87.8
2'F-ANA at 1 2 4 5 6 7 8 9 11 12 15	87
2'F-ANA at 1 5 6 9 12 13 14	53.7
2'F-ANA at 3 4 5 6 7 8 9 10 15	53.7
